Published values collected from several papers.
Compare with care: the assays were run in different laboratories. “And” joins repeats or separate records; there may be more than shown. Numbers after ± are the reported error.

CC[C@H]1OC(=O)[C@H](C)[C@@H](O[C@H]2C[C@@](C)(OC)[C@@H](O)[C@H](C)O2)[C@H](C)[C@@H](O[C@@H]2O[C@H](C)C[C@H](N(C)C)[C@H]2O)[C@](C)(O)C[C@@H](C)C(=O)[C@H](C)[C@@H](O)[C@]1(C)O
EC20 (mitochondrial swelling; BALB/cByJ female mouse liver mitochondria; 30 min, together with: succinate + rotenone; relative to: CaCl2 maximal swelling): > 400 µM

CC[C@H]1OC(=O)[C@H](C)[C@@H](O[C@H]2C[C@@](C)(OC)[C@@H](O)[C@H](C)O2)[C@H](C)[C@@H](O[C@@H]2O[C@H](C)C[C@H](N(C)C)[C@H]2O)[C@](C)(O)C[C@@H](C)C(=O)[C@H](C)[C@@H](O)[C@]1(C)O
sensitive strains (other Enterobacteriaceae; community-acquired pneumonia patients; Fine score 70 or more): 0%

CC(C)(C)c1nn(-c2cc(OCc3cn(Cc4ccc(Br)cc4)nn3)c(Cl)cc2Cl)c(=O)o1
IC50 (Toxoplasma gondii; intracellular parasite growth, luminescence; HFF, wild type, NanoLuc reporter; 96 h): < 2.5 µM and 2.4 µM

Nc1ccn([C@@H]2O[C@H](CO)[C@@H](O)C2(F)F)c(=O)n1
clearance (male BALB/c mouse, plasma; intravenous, 38 µmol/kg): 0.233 mL/min

CC(C)[C@H](NC(=O)[C@@H]1CCCN1C(=O)[C@H](CCCNC(=N)N)NC(=O)[C@H](CS)NC(=O)[C@H](Cc1c[nH]c2ccccc12)NC(=O)[C@H](CCCNC(=N)N)NC(=O)[C@@H](Cc1ccccc1)NC(=O)[C@H](Cc1c[nH]cn1)NC(=O)[C@H](CCC(=O)O)NC(=O)[C@H](CS)NC(=O)[C@H](CS)NC(=O)[C@H](CCCCN)NC(=O)[C@@H]1CC(=O)N[C@@H](CCCNC(=N)N)C(=O)N[C@@H](C)C(=O)N[C@@H](CC(=O)O)C(=O)N[C@H](Cc2ccc(O)cc2)C(=O)N1)C(N)=O [technetium-99m labelled]
tissue uptake (C57 mice, skin; intravenous, 0.037 MBq, 4 h): 0.34 ± 0.05 %ID/g

CC(C)c1c(C(=O)Nc2ccccc2)c(-c2ccccc2)c(-c2ccc(F)cc2)n1CC[C@@H](O)C[C@@H](O)CC(=O)O
EC20 (cytochrome c release, ELISA; BALB/cByJ female mouse liver mitochondria; 30 min; relative to: alamethicin maximal release): < 50 µM

COc1cccc2c1C(=O)c1c(O)c3c(c(O)c1C2=O)C[C@@](O)(C(=O)CO)C[C@@H]3O[C@H]1C[C@H](NC(=O)[C@@H]2CCCN2C(=O)CN)[C@H](O)[C@H](C)O1
Tmax (mouse, E0771 tumour-bearing, kidney; intravenous, 92 µmol/kg PhAc-ALGP-Dox): 5 min

O=C([O-])CN(CCN(CC(=O)[O-])CC(=O)O)CCN(CC(=O)[O-])CC(=O)O.[Gd+3]
relaxivity r1 (phosphate buffer; pH 7.4, 37 °C, 60 MHz, 1.5 T): 3.8 mM⁻¹ s⁻¹

C[C@@H](Oc1ccc(S(C)(=O)=O)cc1C(=O)N1C[C@@H]2C[C@]2(c2cc(C(F)(F)F)on2)C1)C(F)(F)F
AUC(0-167 h) (healthy men, plasma; oral, dose not given, adjusted geometric mean, together with: itraconazole): 27.2 µM·h

CN(C)Cc1cc(OCCC[18F])ccc1Sc1ccccc1N
tissue uptake (SERT; male Sprague Dawley rat, PCA-treated, hippocampus; intravenous, 60 min): 0.19 ± 0.03 %ID/g

CC[C@H]1OC(=O)[C@H](C)[C@@H](O[C@H]2C[C@@](C)(OC)[C@@H](O)[C@H](C)O2)[C@H](C)[C@@H](O[C@@H]2O[C@H](C)C[C@H](N(C)C)[C@H]2O)[C@](C)(O)C[C@@H](C)CN(C)[C@H](C)[C@@H](O)[C@]1(C)O
sensitive strains (all pathogens; community-acquired pneumonia patients; Fine score 70 or more): 60%

Cc1nc2cccc(OCC(C)(C)C(=O)NC(C)C)c2c(N)c1C(=O)O
Cmax (male Sprague-Dawley rat, plasma; oral gavage, 30 mg/kg, day 7): 74.5 ± 16.2 ng/mL

Nc1ccc(-c2nc(-c3ccc(Oc4ccc(C(F)(F)F)cc4)cc3)no2)cc1
elimination half-life (ICR mice, female, plasma; oral, 50 mg/kg): 36 h

COc1cc2c(cc1OC)CN(CCc1ccc(NC(=O)c3cc(OC)c(OC)cc3NC(=O)c3cnc4ccccc4c3)cc1)CC2
brain concentration (Wistar Unilever rat; intravenous, 7.5 mg/kg, 3 h): 2570 ng/mL

CC(=O)N[C@@H](Cc1ccccc1)C(=O)N[C@H]1CCCNC(=O)[C@H](CCCNC(=N)N)NC(=O)[C@H](Cc2c[nH]c3ccccc23)NC(=O)[C@@H](CC2CCCCC2)NC(=O)[C@@H]2CCCN2C1=O
elimination half-life (C57BL/6J mice, spinal cord; oral, 1 mg/kg): 1.57 h

COc1cccc(-c2ccc(NC(=O)C3=C(C(=O)O)CCC3)c(F)c2)c1
AUC(0-24h) (human, male, plasma; oral, 50 mg once daily, day 13, geometric mean, pre-dosed): 166 µg·h/mL

COc1cc(CO)c(-c2ccc3c(c2O)[C@@H](C)N[C@H](C)C3)c2cccc(O)c12
microsomal CLint (metabolic stability; male rat, liver microsomes; 1 µM): < 11.6 µL/min/mg

NC(=O)CC[C@@H]1NC(=O)[C@H](Cc2ccccc2)NC(=O)[C@H](Cc2ccc(O)cc2)NC(=O)CCSSC[C@@H](C(=O)N2CCC[C@H]2C(=O)N[C@H](CCCN=C(N)N)C(=O)NCC(N)=O)NC(=O)[C@H](CC(N)=O)NC1=O
processed sample stability (UPLC-MS/MS; processed plasma extract; 156.23 pg/mL, 48 h, 10 °C, autosampler): 97.7%

C[C@H](Oc1ccc(-c2nc(-c3ccc4[nH]cnc4c3)no2)cc1C(F)(F)F)C(F)(F)F.Cl
predose plasma concentration (cynomolgus monkey aneurysm model, plasma; 0.1 mg/kg once daily, 12 months dosing): 7 ± 1 nM

CC(=O)Oc1ccc(C(c2ccc(OC(C)=O)cc2)c2ccccn2)cc1
EC20 (mitochondrial swelling; BALB/cByJ female mouse liver mitochondria; 30 min, together with: succinate + rotenone; relative to: CaCl2 maximal swelling): > 400 µM

C=CC(N)CCC(=O)O (stereo not drawn)
apparent clearance (CL/F) (male Sprague-Dawley rat, plasma; oral, 1.0 mg/kg, formulation 4, together with: proline and tryptophan 100 mg/kg each): 9.52 ± 0.433 mL/min/kg

A few entries again:
C[C@@H](Oc1ccc(S(C)(=O)=O)cc1C(=O)N1C[C@@H]2C[C@]2(c2cc(C(F)(F)F)on2)C1)C(F)(F)F
AUC(0-167 h) (healthy men, plasma; oral, dose not given, adjusted geometric mean, together with: itraconazole): 27.2 µM·h
